Published values pooled from the literature.
Each numbered part is a random draw from the data of one study; scales do not carry over between parts.

Set 1 — method: protein binding microarray; form: double-stranded DNA, one strand shown; matrix: in vitro; concentration: not given; baseline: not given; reading: higher = stronger binding
Target: Histone acetyltransferase KAT6A, both winged helices, GST fusion (KAT6A, Homo sapiens, UniProt Q92794, residues 1-181)
Notes: 8-mer, flanks averaged, mean of 2 arrays, mostly near background
Target sequence (chain): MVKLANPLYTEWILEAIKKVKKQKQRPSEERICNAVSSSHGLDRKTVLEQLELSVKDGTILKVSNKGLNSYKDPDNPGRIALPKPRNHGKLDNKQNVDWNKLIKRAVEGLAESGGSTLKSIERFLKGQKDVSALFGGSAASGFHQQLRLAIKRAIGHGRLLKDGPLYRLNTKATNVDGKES
Strand	E-score
CGAAGTCA	-0.0387
TGTGGGAA	-0.166
ATTCTAAC	-0.154
ATGGGCGC	0.141

Set 2 — method: protein-binding microarray; form: double-stranded DNA, one strand shown; matrix: in vitro; concentration: 2540 nM top; notes: 60-bp whole probe; added: salmon DNA 0.4 mg/ml; baseline: random background probes; reading: higher = stronger binding
Target: Interferon regulatory factor 3, full length, phosphomimetic (IRF3, Homo sapiens, UniProt Q14653, residues 1-427, S386D/S396D/S398D/S402D/T404D/S405D)
Residues (chain): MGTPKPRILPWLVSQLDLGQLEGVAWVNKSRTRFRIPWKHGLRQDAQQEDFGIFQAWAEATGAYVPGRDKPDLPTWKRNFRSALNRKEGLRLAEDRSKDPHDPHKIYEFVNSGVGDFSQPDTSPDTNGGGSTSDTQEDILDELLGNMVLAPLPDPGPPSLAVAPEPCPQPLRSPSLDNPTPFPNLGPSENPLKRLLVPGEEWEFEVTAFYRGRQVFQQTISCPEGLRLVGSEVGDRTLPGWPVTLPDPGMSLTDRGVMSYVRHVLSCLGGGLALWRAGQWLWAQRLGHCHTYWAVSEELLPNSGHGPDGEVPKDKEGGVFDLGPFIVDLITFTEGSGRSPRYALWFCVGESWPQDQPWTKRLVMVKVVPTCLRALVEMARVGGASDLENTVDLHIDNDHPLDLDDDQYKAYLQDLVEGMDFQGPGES
Strand	fitted relative affinity [z-score]
GCCTAGCACTTAGAACTGAGACCGGATTAGTGCTAGGTCTTGATTCGCTTGACGCTGCTG	-0.073
GCCTAGCACTTAGATATGAGTCTCGATTAGTGCTAGGTCTTGATTCGCTTGACGCTGCTG	-0.223
GCCTAGCACGACAGTTTCGGGACTGGGGACGTGCTAGTCTTGATTCGCTTGACGCTGCTG	4.65
GCCTAGCACTCATAACTCAAGATTCCTACTGTGCTAGTCTTGATTCGCTTGACGCTGCTG	0.705

Set 3 — method: universal PBM; form: double-stranded DNA, one strand shown; matrix: in vitro; concentration: not given; reading: higher = stronger binding
Target: Sal-like protein 4, full length isoform B (SALL4, Homo sapiens, UniProt Q9UJQ4-2, residues 1-616)
Notes: 8-mer, flanks averaged, mean of replicates
Strand	E-score
AATGTGAT	0.193
AAGGTCTC	0.0153
CGGCGAGA	-0.214
TACTGAGA	-0.168
CGGGACTA	-0.135
ATCGGCAT	0.134

Mixed results
Substance	target	assay	test system	conditions	how to read	quantity	result
PhoQ, residues 284 288 289 292 302 303 SLSLLA	PhoP, residues 12 14 15 18 19 GQALL (Escherichia coli, UniProt P23836)	Sort-seq, refers to: YFP reporter	E. coli	PhoQ-PhoP variant library, added: 10 µM Mg2+	baseline: high Mg2+ state, higher = stronger signaling	fold induction	11
